Experimental data collected from several papers.
Numbered parts are unrelated; each lists some results of a single study. Substitutions count along the parent as printed.

Block 1
Target: UBE2E3 UBC core domain (UniProt Q969T4)
UniProt Q969T4, sequence (whole entry, looked up): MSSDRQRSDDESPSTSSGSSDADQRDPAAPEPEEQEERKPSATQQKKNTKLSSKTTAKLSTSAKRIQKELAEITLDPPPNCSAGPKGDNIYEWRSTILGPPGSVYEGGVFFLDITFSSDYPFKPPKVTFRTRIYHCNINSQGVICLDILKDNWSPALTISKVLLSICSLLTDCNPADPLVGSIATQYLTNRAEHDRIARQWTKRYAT
Technique: yeast two-hybrid
Matrix: yeast
Setting: mostly zero background
Baseline: not given
Reading: higher = stronger interaction
Measurement: lacZ reporter activity
B1: RNF6 RING domain (UniProt Q9Y252); chain NSIDSELGKICSVCISDYVTGNKLRQLPCMHEFHIHCIDRWLSENCTCPICRQPVLGSNIAN
B2: MID2 RING domain (UniProt Q9UJV3); chain KMETLESELTCPICLELFEDPLLLPCAHSLCFSCAHRILVSSCSSGESIEPITAFQCPTCRYVISLNHRGL
B3: ZMYND11 RING domain (UniProt Q15326); chain DEIDWETENHDWYCFECHLPGEVLICDLCFRVYHSKCLSDEFRLRDSSSPWQCPVCRSIKKKNTNKQEM
B4: MARCHF1 RING domain (UniProt Q8TCQ1); chain TAPRSQSRLSVCPSTQDICRICHCEGDEESPLITPCRCTGTLRFVHQSCLHQWIKSSDTRCCELCKYDFIMETKLKPLRKWE
B5: HLTF RING domain (UniProt Q14527); chain LILSSGSDEECAICLDSLTVPVITHCAHVFCKPCICQVIQNEQPHAKCPLCRNDIHEDNLLE
B6: VPS8 RING domain (UniProt Q8N3P4); chain TRGLNPKQDYCSICLQQYKRRQEMADEIIVFSCGHLYHSFCLQNKECTVEFEGQTRWTCYKCSSSNKVGKLSE
B7: CNOT4 RING domain (UniProt O95628); chain MSRSPDAKEDPVECPLCMEPLEIDDINFFPCTCGYQICRFCWHRIRTDENGLCPACRKPYPED
B8: RNF103 RING domain (UniProt O00237); chain WPADMLHCTECVVCLENFENGCLLMGLPCGHVFHQNCIVMWLAGGRHCCPVCRWPSYKKKQPY
B9: RNF182 RING domain (UniProt Q8N6D2); chain AESQASDELECKICYNRYNLKQRKPKVLECCHRVCAKCLYKIIDFGDSPQGVIVCPFCRFETCLPDDEV
B10: RING1 RING domain (UniProt Q06587); chain SPRSLHSELMCPICLDMLKNTMTTKECLHRFCSDCIVTALRSGNKECPTCRKKLVSKRSLR
B11: TRIM11 RING domain (UniProt Q96F44); chain LSTNLQEEATCAICLDYFTDPVMTDCGHNFCRECIRRCWGQPEGPYACPECRELSPQRNLRP
B12: TRIM41 RING domain (UniProt Q8WV44); chain PVQTLQEEAVCAICLDYFTDPVSIGCGHNFCRVCVTQLWGGEDEEDRDELDREEEEEDGEEE
B13: BFAR RING domain (UniProt Q9NZS9); chain GPQISVSEFSCHCCYDILVNPTTLNCGHSFCRHCLALWWASSKKTECPECREKWEGFPKVS
Molecule = B1 (RNF6 RING domain); value = 0
Molecule = B2 (MID2 RING domain); value = 0
Molecule = B3 (ZMYND11 RING domain); value = 0
Molecule = LVKDFNPYITCYICKGYLIKPTTVTECLHTFCKTCIVQHFEDSNDCPRCGNQVHETNPLE (PCGF5 RING domain (UniProt Q86SE9)); value = 0
Molecule = B4 (MARCHF1 RING domain); value = 0
Molecule = EIKEYKARLTCPCCNTRKKDAVLTKCFHVFCFECVRGRYEARQRKCPKCNAAFGAHDFHR (RNF40 RING domain (UniProt O75150)); value = 0
Molecule = B5 (HLTF RING domain); value = 0
Molecule = B6 (VPS8 RING domain); value = 0
Molecule = B7 (CNOT4 RING domain); value = 12700
Molecule = B8 (RNF103 RING domain); value = 0
Molecule = B9 (RNF182 RING domain); value = 0
Molecule = B10 (RING1 RING domain); value = 0
Molecule = B11 (TRIM11 RING domain); value = 0
Molecule = B12 (TRIM41 RING domain); value = 0
Molecule = B13 (BFAR RING domain); value = 0

Block 2
Target: Prothrombin, mature alpha-thrombin (F2, Homo sapiens, UniProt P00734)
Technique: aptamer microarray, sandwich
Form: DNA with 2'F-ANA
Matrix: in vitro
Tested at: 200 nM
Setting: whole 15-mer aptamer, many near background
Added: Cy3 exosite-II aptamer, 400 nM
Reading: higher = stronger binding
Measurement: mean fluorescence intensity
Strand: GGTTGGTGTGGTTGG
Modification = 2'F-ANA at 2 3 4 5 6 8; value = 133 a.u.
Modification = 2'F-ANA at 3 5 6 9 10 11 12 13 14; value = 53.9 a.u.
Modification = 2'F-ANA at 1 3 4 5 9 11 13 15; value = 58.6 a.u.
Modification = 2'F-ANA at 3 7 8 9 10 11; value = 485 a.u.
Modification = 2'F-ANA at 1 3 5 10 11 12 13 14; value = 45 a.u.
Modification = 2'F-ANA at 1 2 3 5 6 8 10 11 12 14; value = 49.9 a.u.
Modification = 2'F-ANA at 2 3 5 6 9 10 12; value = 59.4 a.u.
Modification = 2'F-ANA at 2 4 9 11 12 13 14 15; value = 92.5 a.u.
Modification = 2'F-ANA at 1 3 4 7 10 13 14 15; value = 245 a.u.
Modification = 2'F-ANA at 1 2 3 4 9 11 13 14 15; value = 55.3 a.u.
Modification = 2'F-ANA at 1 2 5 6 8 10 11 12 13 14 15; value = 54.4 a.u.
Modification = 2'F-ANA at 1 4 8 10 11 12 14; value = 48.8 a.u.
Modification = 2'F-ANA at 2 6 7 9 12 14 15; value = 155 a.u.
Modification = 2'F-ANA at 2 4 6 7 8 10 12 13 14 15; value = 64.3 a.u.
Modification = 2'F-ANA at 1 2 3 4 5 6 8 10 12; value = 67 a.u.
Modification = 2'F-ANA at 1 2 5 6 7 10 13 15; value = 79.5 a.u.

Block 3
Target: ABI1, truncated, D143A, DHFR fusion (Arabidopsis thaliana)
Technique: DHFR PCA, deep sequencing
Matrix: yeast
Setting: methotrexate growth selection, single substitutions
Added: (+)-ABA 710 µM
Baseline: wild-type fitted maximum
Reading: higher = stronger binding
Measurement: relative binding score
Parent: PYL1, truncated, DHFR fusion (Arabidopsis thaliana); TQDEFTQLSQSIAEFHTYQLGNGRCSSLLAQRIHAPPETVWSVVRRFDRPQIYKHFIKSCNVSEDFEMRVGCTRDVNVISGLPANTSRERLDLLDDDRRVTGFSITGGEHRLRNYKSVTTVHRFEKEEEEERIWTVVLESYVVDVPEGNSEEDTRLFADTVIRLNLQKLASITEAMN
Substitution = V137G; value = 0.967%
Substitution = H55W; value = 103%
Substitution = T39L; value = 105%
Substitution = V136R; value = 43.6%
Substitution = N165T; value = 25.9%
Substitution = A175Q; value = 96.1%
Substitution = R98W; value = 52.1%
Substitution = R69E; value = 89.4%
Substitution = R99V; value = 32.8%
Substitution = D96G; value = 77.5%
Substitution = T154A; value = 94.6%
Substitution = R49D; value = 93.2%
Substitution = V161W; value = 44.2%
Substitution = V121A; value = 54.1%
Substitution = S140I; value = 9.08%

Block 4
Target: CCNA2, cyclin fold, Cln2 fusion (human)
Technique: yeast growth competition, sequencing
Matrix: yeast
Setting: strong parent motif
Baseline: not given
Reading: higher = stronger binding
Measurement: normalised enrichment score
Parent: PKN2 docking peptide (human); VSAVRKLDFSDTM
Substitution = F9E; value = -0.154
Substitution = T12C; value = 4.74
Substitution = L7M; value = 0.581
Substitution = T12W; value = 5.08
Substitution = S2A; value = 5
Substitution = A3I; value = 5.12
Substitution = D8A; value = 4.21
Substitution = F9A; value = -0.442
Substitution = R5V; value = 1.97
Substitution = K6Y; value = 4.2
Substitution = D11N; value = 5.48
Substitution = D11M; value = 4.92
Substitution = R5G; value = 0.652
Substitution = K6Q; value = 4.49
Substitution = T12G; value = 4.49
Substitution = V4C; value = 5.45
Substitution = S2W; value = 4.22
Substitution = F9N; value = 0.0349
Substitution = K6E; value = 3.41
Substitution = D11P; value = 5.26
Substitution = D8P; value = 2.76

Block 5
Target: Ras GTPase-activating protein-binding protein 1, full length (G3BP1, Homo sapiens, UniProt Q13283)
UniProt Q13283, sequence (whole entry, looked up): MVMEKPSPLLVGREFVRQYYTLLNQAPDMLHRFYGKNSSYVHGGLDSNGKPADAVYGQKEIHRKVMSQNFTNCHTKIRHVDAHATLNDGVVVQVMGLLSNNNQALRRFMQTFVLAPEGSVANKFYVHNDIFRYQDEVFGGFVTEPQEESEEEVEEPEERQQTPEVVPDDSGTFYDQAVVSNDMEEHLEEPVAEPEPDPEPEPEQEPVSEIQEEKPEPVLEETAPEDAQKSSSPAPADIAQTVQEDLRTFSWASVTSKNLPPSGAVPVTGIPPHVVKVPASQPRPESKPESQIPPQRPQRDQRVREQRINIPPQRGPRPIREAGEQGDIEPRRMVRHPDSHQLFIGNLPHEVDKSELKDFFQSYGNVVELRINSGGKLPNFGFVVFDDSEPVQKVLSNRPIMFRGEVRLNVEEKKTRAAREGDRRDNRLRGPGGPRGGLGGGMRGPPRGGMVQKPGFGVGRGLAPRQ
Technique: RNA Bind-n-Seq
Form: RNA
Matrix: in vitro
Tested at: 200 nM
Setting: whole 134-nt RNA, ends assumed
Added: 150 mM KCl
Baseline: input library
Reading: higher = stronger binding
Measurement: log2 enrichment
Strand = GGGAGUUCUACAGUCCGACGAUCGUCCUGUGCUACACAUCGUAUGUACCGAAUCGGGUUUUUUUGGGAAAGGGAAAAAGGGAAAGUAUUAUGUUACGCCGUUCGGAUCUGCACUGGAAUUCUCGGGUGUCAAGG; value = -0.622
Strand = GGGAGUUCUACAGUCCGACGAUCUUUUCAAGGGCCGCUUGAAGAUGCCAUUGAAGAUGAGGAAGAAGAAUGUCCAUCAGAGGAAACAGACAUCAUCUCCAAAGGAGACUUUCCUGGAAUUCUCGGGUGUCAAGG; value = -1.55
Strand = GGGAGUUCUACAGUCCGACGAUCGCAGGAAGUAAAAACAAAUGGAAAUGCUUCGGAUAGUGGCAGGGGUGGGGGUUGCUAAGGAAAGGGUGGGAUGGGAGUGGGUAACGAGUUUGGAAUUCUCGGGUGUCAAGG; value = 1.06
Strand = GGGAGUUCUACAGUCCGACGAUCCUCAAGUCCUGUGCUACACAUCGUAUGUACCGAAUCGGGUUGGGGUUGGUUGGAAAGUAUUAUGUUACGCCGUUCGGAUCUGCACUUCCAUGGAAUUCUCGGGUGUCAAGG; value = 0.243
Strand = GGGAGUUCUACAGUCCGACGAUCUAACUUUAGAGGAGGAUCUGAUGGAUAUGGCAGUGGACGUGGAUUUGGGGAUGGCUAUAAUGGGUCUGGAGGAGGACCUGGAGGUGGCAAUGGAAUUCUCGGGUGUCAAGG; value = 0.23
Strand = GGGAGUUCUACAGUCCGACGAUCCCUCAAGUCCUGUGCUACACAUCGUAUGUACCGAAUCGGGAGGAGGGGAGGGAAAGUAUUAUGUUACGCCGUUCGGAUCUGCACUUCCAGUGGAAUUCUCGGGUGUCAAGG; value = 1.22
Strand = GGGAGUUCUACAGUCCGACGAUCCAAGUCCUGUGCUACACAUCGUAUGUACCGAAUCGGGUUUGGGGUUUGGGGUUUGGAAAGUAUUAUGUUACGCCGUUCGGAUCUGCACUUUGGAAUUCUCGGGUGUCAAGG; value = -0.267
Strand = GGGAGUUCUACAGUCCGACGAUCAAGUCCUGUGCUACACAUCGUAUGUACCGAAUCGGGCCCGGGGCCCGGGGCCCGGGGAAAGUAUUAUGUUACGCCGUUCGGAUCUGCACUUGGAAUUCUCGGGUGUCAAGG; value = -0.991
Strand = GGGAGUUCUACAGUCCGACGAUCAGUCCUGUGCUACACAUCGUAUGUACCGAAUCGGGAAAAGGGAAAAGGGAAAAGGGGAAAGUAUUAUGUUACGCCGUUCGGAUCUGCACUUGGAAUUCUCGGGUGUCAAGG; value = 0.326
Strand = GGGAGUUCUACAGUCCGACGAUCGUCCUGUGCUACACAUCGUAUGUACCGAAUCAAAUUUUUAAAUUUUUUUAAACCCAAAAAAGUAUUAUGUUACGCCGUUCGGAUCUGCACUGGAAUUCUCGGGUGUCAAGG; value = -0.345
Strand = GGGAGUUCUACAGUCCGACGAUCACCAUGCAGGUGGGCAUCUUUGGGAAGUGGGGCAAGGGGGGGAUAGGGAGGGGGGUAACACUUUGGGAACAGGUGGUCCCAGGUCCUUUCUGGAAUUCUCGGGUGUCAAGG; value = 1.2
Strand = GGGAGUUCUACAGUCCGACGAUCUCCUGUGCUACACAUCGUAUGUACCGAAUCAAAUUUUUUUAAACCCCCCCAAACCCAAAAAAGUAUUAUGUUACGCCGUUCGGAUCUGCAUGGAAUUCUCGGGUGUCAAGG; value = -0.0224
Strand = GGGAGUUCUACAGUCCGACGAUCCAAGUCCUGUGCUACACAUCGUAUGUACCGAAUCGGAAAAAGGUGGUUUUUUUGGAAAGUAUUAUGUUACGCCGUUCGGAUCUGCACUUCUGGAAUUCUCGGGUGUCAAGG; value = -1.25
Strand = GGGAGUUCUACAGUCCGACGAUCUAACUUUAGAGGAGGAUCUGAUGGAUAUGGCAGUGGACGUGGAAUUGGGGAUGGCUAUAAUGGGUAUGGAGGAGGACCUGGAGGUGGCAAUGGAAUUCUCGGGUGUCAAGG; value = 0.304

Some of these lines once more (block 4):
Substitution = R5V; value = 1.97
Substitution = K6Y; value = 4.2
Substitution = D11N; value = 5.48
Substitution = D11M; value = 4.92
Substitution = R5G; value = 0.652
Substitution = K6Q; value = 4.49
Substitution = T12G; value = 4.49
